Assay results from different studies.
Compare with care: the assays were run in different laboratories.

| Structure (SMILES) | assay | system | setting | quantity | value |
| --- | --- | --- | --- | --- | --- |
| CCN(CCO)CCCC(C)Nc1ccnc2cc(Cl)ccc12 (stereo not shown) | item: Fever grade 1 | newly diagnosed glioblastoma patients | oral, 400 mg/dose, with radiotherapy and temozolomide | patients with adverse event | 14% |
| C[C@@H]1OC(=O)NN=C1c1ccc(-c2ccc(F)cc2)c(C(F)(F)F)c1 | – | patients, phase I trial | oral, dose not given, all arms, any grade TEAE | patients with blood ALP increased | 20% |
| C=CCNc1c(O)cc2c(O)c1C[C@@H](C)C[C@H](OC)[C@H](O)[C@@H](C)/C=C(\C)[C@H](OC(N)=O)[C@@H](OC)/C=C\C=C(/C)C(=O)N2 | – | unresectable or metastatic STS, GIST, other | intravenous, 90 mg/m^2 | patients with arthralgia TEAE | 17% |
| O=C1Nc2cc3[nH]nc(-c4ccncc4)c3cc2CN1Cc1ccccc1 | CTCAE v4.03 | advanced solid tumour patients | intravenous, 3.6 mg/kg, schedules 1/2 | patients with abdominal pain | 33% |
| CO[C@H]1C[C@@H]2CC[C@@H](C)[C@@](O)(O2)C(=O)C(=O)N2CCCC[C@H]2C(=O)O[C@H]([C@H](C)C[C@@H]2CC[C@@H](OC(=O)NCCOCCOCCOCCOCCOCCOCCOCCOCCC(=O)N3CCc4cc(Cn5nc(-c6ccc7oc(N)nc7c6)c6c(N)ncnc65)ccc4C3)[C@H](OC)C2)C[C@@H](O)[C@H](C)/C=C(\C)[C@@H](O)[C@@H](OC)C(=O)[C@H](C)C[C@H](C)/C=C/C=C/C=C/1C | item: gastric haemorrhage leading to dose reduction | patients with advanced solid tumours | intravenous, dose not given, grade ≥3, all doses | patients with AE | 1.8% |
| N[C@@H]1c2ccccc2OC12CCN(c1cnc3c(N4CCCc5ncccc54)n[nH]c3n1)CC2 | phase Ia | patients advanced metastatic solid tumours | oral, dose not given | patients with dose reductions | 20% |
| COc1c(OCCCN2CCOCC2)ccc2c1N=C(NC(=O)c1cnc(N)nc1)N1CCN=C21 | item: Anaemia | patients with advanced malignancies | intravenous, dose not given, any grade, all cohorts, with: gemcitabine | patients with adverse event | 64% |
| CC(=O)c1c(C)c2cnc(Nc3ccc(C4CCN(CCS(C)(=O)=O)CC4)cn3)nc2n(C2CCCC2)c1=O | – | HR+/HER2- advanced breast cancer patients | oral, 100 mg twice daily, grade 3/4,, monotherapy | patients with AST increased | 0% |
| CN1CC[C@@H](c2c(O)cc(O)c3c(=O)cc(-c4ccc(C(F)(F)F)cc4Cl)oc23)[C@@H]1CO | item: Syncope | relapsed B-cell malignancies or AML | oral, 100 mg, grade 3-4, continuous dosing | patients with adverse event | 0% |
| Nc1nc2cc(-c3ccc4ncc(C(=O)N5CCOCC5)n4c3)ccc2o1 | item: Cough, any cause, grade ≥3 | patients with advanced solid tumours | dose not given | patients with adverse events | 0% |
